Experimental data pooled from the literature.
Numbered parts are unrelated; each lists some results of a single study.

Series 1 — technique: RNA Bind-n-Seq; molecule type: RNA; medium: in vitro; tested at: 365 nM; baseline: no-protein control; reading: higher = stronger binding; quantity: RBNS enrichment (R)
Target: RNA binding protein fox-1 homolog 2, RRM domain, GST-SBP tag (RBFOX2, Homo sapiens, UniProt O43251-10, residues 100-194)
Setting: natural RNA segment, single round, ends assumed
Shared flanks, not repeated: GGGAGUUCUACAGUCCGACGAUC … UGGAAUUCUCGGGUGCCAA
Construct (chain): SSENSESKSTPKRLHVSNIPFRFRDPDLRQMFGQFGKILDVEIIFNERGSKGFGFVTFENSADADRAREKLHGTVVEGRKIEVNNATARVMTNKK
Oligonucleotide = AAAAAGUUUGUGACAUUGUAGUAGGGAGUGUGUACCCCUUACUCCCCAUCAAAAAAAAAAAUGGAUACAUGGUUAAAGGAUAGAAGGGCAAUAUUUUAUCAUAUGUUCUA; value = 0.603
Oligonucleotide = UCUUCUGGUUGGUAAAAGAUAUGUUCCGGAGAAUAUAGGAACAUGCCCGGAGAGACCUAACCUGUAUGUCCACUUUCAUGCUCUUGUUCCCCAAACCCCUGGGCAUUGUU; value = 0.956
Oligonucleotide = AGCUGCUCUCAGGCACCCCCUUCUUCAUUGCUCUCUCCAGAAAGGGUUGCUAGCCUUAACUUCAGCUGGUGCAAAACAUCUGACUGUAGCCGAACUUCAGCCAUCAGAUC; value = 0.444
Oligonucleotide = AGCGGCCCUACAAGUGUCCCAGGUGCGGCAAGGCCUUCGCUGAUAGCUCUUACCUACUCCGCCACCAGCGUACCCACUCUGGCCAGAAGCCCUACAAAUGUCCACACUGU; value = 0.427
Oligonucleotide = GACUGACCCCUCAGGCCCCUAGGCUGGGGGGUUGUAAAUAACAGCAGUCAGGUUGUUUACCAGCCCUUUGCACCUCCCCAGGCAGAGGGAGCCUCUGUUCUGGUGGGGGC; value = 0.444
Oligonucleotide = UUUGUAUAGCUUCAAGAACUUUAUACCUGUACAGCUCUAACAUGACACUGCUCCACUCAGUAUUCAUCCUGUUGACGCACACAGGUGAGCACUUUCCUAACUACUGCAGA; value = 0.688
Oligonucleotide = UGGAACUAUACAGAUAGGUAAAGAGUUCCAAGUUCGUCCAGCCCAUGUGCAAAGUCAACAGUAUUUGCCUUAAGAUUUCAUAUAUAUAUAUUUUUUUGCAUUGACUGCUG; value = 0.693
Oligonucleotide = CCUGGCCUCUGCAGGGAACUGCAGCACACACUGCACUCCCACCUGCUCUUGCCGCCAGCAUUGCACCAGCAGUCCAGAAUUCCUGCCUGACAACCCGUGUUUCCUUUAUU; value = 0.625
Oligonucleotide = AAACUUGUUAGCUUCGAUGAAGUCACUUCAUCUUCUCUCCUGCCUUAUUUUUUUAAAUAAGUUUUUAGGUCCUGACACUGACAUCAAAUACAUGCACACCAGAAAGGCAU; value = 0.485
Oligonucleotide = AGCCAAGCCUAUCCAGCUAACAAGAGCUCCCUGGGGCUGGUCACAGCUGGCUCAUGAUGCUGAACUUGAAAGUUUUUUUGUUUUUGUUUUUGUUUUGUGGCUCCUCCAAG; value = 1.1
Oligonucleotide = GCCGUGUCCUGAGGAGCACCUGGCCUUCCGCGUGGUCAGCGGGGCCGCCAACGUCAUUGGGCCCAAGAUCUGCCUCGAGGACAAGAGGCUGAUGAGCAGCGUCAAGGACA; value = 0.609
Oligonucleotide = UGUUACACUGGAGCCUGCUGCAGGCCAGCUCUCUGCUCUUCACUGCUUCCCUUGACUGGGGAGACUGGAAGUCCUUACACUGGAGUUGCUGGGCCAACUGGUCACCCUCA; value = 0.355

Series 2 — technique: protein-binding microarray; molecule type: double-stranded DNA, one strand shown; medium: in vitro; tested at: 0.8 µM; setting: whole 60-bp probe, no competitor; reading: higher = stronger binding; quantity: fluorescence intensity; shared flanks, not repeated: … GTCTTGATTCGCTTGACGCTGCTG
Target: Centromere-binding protein 1, full length, N-terminal tag (CBF1, Saccharomyces cerevisiae, UniProt P17106, residues 1-351)
Sequence of UniProt P17106 (whole entry, looked up): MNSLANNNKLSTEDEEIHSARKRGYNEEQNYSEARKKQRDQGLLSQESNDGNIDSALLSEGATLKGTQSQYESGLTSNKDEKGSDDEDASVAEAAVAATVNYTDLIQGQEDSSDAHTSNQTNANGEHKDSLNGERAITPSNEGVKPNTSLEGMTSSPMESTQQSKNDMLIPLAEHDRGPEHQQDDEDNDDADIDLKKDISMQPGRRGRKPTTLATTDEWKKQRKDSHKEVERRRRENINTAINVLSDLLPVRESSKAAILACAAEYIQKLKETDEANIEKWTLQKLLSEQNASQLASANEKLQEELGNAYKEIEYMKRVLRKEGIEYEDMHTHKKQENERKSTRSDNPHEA
Oligonucleotide = GAATGTAATTGTCATCAGCTGTATACTGTTCGATAG; value = 558 a.u.
Oligonucleotide = CTATTCCATATTTACCATGTGGACCCTTTCAAATTC; value = 652 a.u.
Oligonucleotide = CTAACACACCGCGCACACGTGCTTTATTTCTTTTTC; value = 4650 a.u.
Oligonucleotide = CTATGAGTAGGATCCAACGTGCCAAAGAATTTATTC; value = 613 a.u.
Oligonucleotide = GAACTCGGATAAAATTATCTGATGACTGTCGAATAG; value = 539 a.u.
Oligonucleotide = GAATGTCACTATCATCACGCCCTAGAGCCAAGTTAG; value = 588 a.u.
Oligonucleotide = CTACAATTTTTTTTTCACGTAATTGGAGAAAAATTC; value = 557 a.u.
Oligonucleotide = CTAACGTGTTATTTCCAGCACGTGGGGCGGAAATTC; value = 10100 a.u.
Oligonucleotide = CTACTCAAATAGAGTCGGGTGGAATGAAAAAAATTC; value = 546 a.u.
Oligonucleotide = CTACCATCATTTTGATCCGTGACATAGTAGGAATTC; value = 737 a.u.
Oligonucleotide = CTAATAAGGTGTCAGCATGTGGGGTGAGGATAATTC; value = 573 a.u.
Oligonucleotide = GAAGTTCACCGTTTTCACGTGCACAAATTCGAGTAG; value = 4550 a.u.
Oligonucleotide = CCTAACTACTATACACACGTAGGATAGCTTCGTACA; value = 540 a.u.
Oligonucleotide = GAACATGTACATACGCATGTGGCAATATGCCAATAG; value = 529 a.u.
Oligonucleotide = GAAGCCCGAAATCCTCATGATCGAGCCGAATGCTAG; value = 510 a.u.
Oligonucleotide = TGTACGAAGCTATATCGCATGCATATAGTAGTTAGG; value = 503 a.u.

Series 3 — technique: universal PBM; molecule type: double-stranded DNA, one strand shown; medium: in vitro; tested at: 600 nM; reading: higher = stronger binding; quantity: E-score
Target: Sal-like protein 4, full length isoform A (SALL4, Homo sapiens, UniProt Q9UJQ4, residues 1-1053)
Sequence of UniProt Q9UJQ4 (whole entry, looked up): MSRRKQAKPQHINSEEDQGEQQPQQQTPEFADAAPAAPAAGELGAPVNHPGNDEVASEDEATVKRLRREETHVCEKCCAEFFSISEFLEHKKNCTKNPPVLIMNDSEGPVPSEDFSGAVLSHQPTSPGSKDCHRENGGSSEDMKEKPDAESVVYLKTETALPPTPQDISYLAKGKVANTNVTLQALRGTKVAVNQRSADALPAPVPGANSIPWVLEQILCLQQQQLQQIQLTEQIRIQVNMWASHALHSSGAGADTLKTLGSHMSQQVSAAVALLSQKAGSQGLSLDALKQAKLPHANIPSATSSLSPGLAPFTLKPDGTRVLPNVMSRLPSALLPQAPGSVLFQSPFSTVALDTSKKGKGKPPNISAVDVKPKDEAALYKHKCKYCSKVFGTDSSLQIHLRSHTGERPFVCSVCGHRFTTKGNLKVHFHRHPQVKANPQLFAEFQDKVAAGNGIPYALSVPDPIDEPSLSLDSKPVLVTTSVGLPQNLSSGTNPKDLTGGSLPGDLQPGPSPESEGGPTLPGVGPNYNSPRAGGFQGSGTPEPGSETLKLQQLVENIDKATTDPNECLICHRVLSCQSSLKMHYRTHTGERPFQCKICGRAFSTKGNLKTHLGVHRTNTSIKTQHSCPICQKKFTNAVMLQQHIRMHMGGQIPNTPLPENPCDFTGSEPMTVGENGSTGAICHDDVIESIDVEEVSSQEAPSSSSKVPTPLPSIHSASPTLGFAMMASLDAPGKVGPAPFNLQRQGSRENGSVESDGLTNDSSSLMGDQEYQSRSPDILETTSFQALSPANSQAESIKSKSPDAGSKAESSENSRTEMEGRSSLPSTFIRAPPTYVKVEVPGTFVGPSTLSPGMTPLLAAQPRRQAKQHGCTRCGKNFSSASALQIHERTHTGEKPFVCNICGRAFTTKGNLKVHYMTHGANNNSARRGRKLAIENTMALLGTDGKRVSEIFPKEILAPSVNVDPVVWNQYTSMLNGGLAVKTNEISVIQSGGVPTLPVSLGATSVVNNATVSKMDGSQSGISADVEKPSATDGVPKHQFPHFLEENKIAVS
Setting: 8-mer, flanks averaged, mean of replicates
Oligonucleotide = CAGTAACA; value = 0.169
Oligonucleotide = CGCTTATA; value = 0.142
Oligonucleotide = ACATCTTA; value = 0.097
Oligonucleotide = CAGCTACA; value = -0.0132
Oligonucleotide = ATAGCCGG; value = -0.0612
Oligonucleotide = TTACATAA; value = 0.359
Oligonucleotide = CCGAAAAA; value = 0.184
Oligonucleotide = CCCGGTTA; value = -0.231
Oligonucleotide = AGAAGTAT; value = 0.268
Oligonucleotide = CGCTCTCA; value = -0.283
Oligonucleotide = AGTGTCCA; value = -0.00107
Oligonucleotide = GAGACACA; value = -0.0275
Oligonucleotide = CGGAAGGA; value = -0.163
Oligonucleotide = GATCGAAC; value = -0.097
Oligonucleotide = CCTTATCG; value = 0.161
Oligonucleotide = ACCTTGCG; value = -0.0816
Oligonucleotide = AACCTCTG; value = 0.0282
Oligonucleotide = ACACCGGT; value = -0.26
Oligonucleotide = TCAATGAA; value = 0.181
Oligonucleotide = TCGGCACA; value = -0.108
Oligonucleotide = CGGAAAAC; value = -0.0253
Oligonucleotide = CTTGTCGA; value = 0.0853
Oligonucleotide = CCACCGAA; value = -0.131
Oligonucleotide = AGACGTTC; value = -0.004
Oligonucleotide = CTGCACTA; value = 0.0184

Series 4 — technique: RNA Bind-n-Seq; molecule type: RNA; medium: in vitro; tested at: not given; baseline: input RNA pool; reading: higher = stronger binding; quantity: bound/input enrichment
Target: RING finger protein unkempt homolog, zinc fingers 1-6, GST-SBP tag (UNK, Homo sapiens, UniProt Q9C0B0, residues 30-357)
Sequence of UniProt Q9C0B0 (30-357, looked up): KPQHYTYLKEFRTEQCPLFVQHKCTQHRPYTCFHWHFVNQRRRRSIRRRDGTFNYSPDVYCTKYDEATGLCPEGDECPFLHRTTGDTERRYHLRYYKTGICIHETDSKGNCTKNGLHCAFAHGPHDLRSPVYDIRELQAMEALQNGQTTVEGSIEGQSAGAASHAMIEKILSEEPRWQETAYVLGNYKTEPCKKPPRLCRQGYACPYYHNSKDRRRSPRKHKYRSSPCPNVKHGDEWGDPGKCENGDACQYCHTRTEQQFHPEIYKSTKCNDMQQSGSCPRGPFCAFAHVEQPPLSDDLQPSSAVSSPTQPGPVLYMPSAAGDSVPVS
Setting: RNA with constant flanks, human-mouse chimeric sites, ends assumed
Shared flanks, not repeated: GGGAGUUCUACAGUCCGACGAUC … CAACAGAGGAUUGAGCAUCA
Oligonucleotide = GAUAAGAAAAGCUUGUUGGAGACCCGCUUGCAUGUCACUGGUAGAGACCUGAGGUGUCAAAUAGCUGAAACCUUUGGAUUUCAAGAAAAUUACAUCAAGAUCGUAAUAAAUAAGAAGCAG; value = 0.414 ratio
Oligonucleotide = CCCCAAUACCAUUUGCAGGUCUGGAACCUGCAUUCUUUUUUUAAAAAACAUGUAUACAUUUUAGGGCUGUAGACUUAUUUUCCUGGUUUUGUUUUUCAUUGCUGACUUUUGAGCACAGAA; value = 0.914 ratio
Oligonucleotide = UAAGUUAUUUUGUACAGCUUUGUAAAUUGUAUAGCUUUUUAUAUUGCCAUGUUUAUUUUGUUUGGGUAAUUUGGUUCAUUAAGUACAUAGCUAAGGUAAUGAACAUCGUAAUUAUAGAUU; value = 6.52 ratio
Oligonucleotide = UAAAUUAGGGCUGCCGUUUUCUGUUUCUCCCUGGGCUGCAGACAGCUAGAAGAUUUUAUCUAGCUUAUACAAGGCUGCUGGUGUUCCCUCUUUUUUUCCACGAGGGUUUUUUUUCCAGCA; value = 0.755 ratio
Oligonucleotide = AAAGAAAAUGGAGAUGUAAAGAUUUUGCUGAAAAGUGGGAAGGAGAAACCAAAAACAAAUAUAGAAGACUUACAAAUUAAAAAGGUAAAGAAGAAAAAGAAAAAGAAACACAAAGAGAAU; value = 13 ratio
Oligonucleotide = AAAGUGAUAACCAUGUUUGUCCAACGACAGGUAUUUUCUGAGAACAAAGAUGAGAUUGCGUUAGUCCUCUAUGGCACAGAUGGCACUGAUAAUGCCCUUGCUGGCAAGGACCAGUAUCAG; value = 0.108 ratio
Oligonucleotide = CUGAGGAAUACCACUGAGAGACCUUAAAAGAAUCAUUUGAGGGCUCUGUUCGUGCAAGAAUAGUCACUGAUCGGGAAACUGGUUCUUUCCAAAGGGUUGGUUUUGUAGACUUUAAUAGUG; value = 0.754 ratio
Oligonucleotide = GGGACUGAUUCAUCCCAAGGACAGGCAACCCCAUUUGAUGCCUGGACUGAUGACAGUAUGGAAGGGCCUAGUCAAAAUGUUGAAGCUGAGUCAAUUCAGGAUGCCAUGAGUAUGGAAGAG; value = 0.406 ratio
Oligonucleotide = CAGCGCCGAGGCCGCGGUUUCCCCCUGGGCCUCCCCAGCAGCAGCCAUGGGCAUCAAGUUUUUAGAAGUUAUUAAACCAUUCUGUGCAGUUCUACCAGAAAUUCAGAAACCGGAAAGGAA; value = 4.2 ratio
Oligonucleotide = UACUCAACUUUCUUUCCACAUUUUGAAUUCCAAGACAUUAUUCCUCCAGAUGACUUCCUAACGAGUGAUGAAGAGCAAGAUUCCGUUUUAUUUGGAACUAUGAGAGGACAAGUUGUUGGA; value = 0.188 ratio
Oligonucleotide = CCCCACAACCAUUUGCAGGUCUGGAACCUGCAUUCUUUUUUUAAAAAACAUGUAUACAUUUUAGGGCUGUAGAUUUAUUUUCCUGGUUUUGUUUUUCAUUGCUGACUUUUGAGCACAGAA; value = 1.53 ratio

For quick reference, copied from above (series 1):
Oligonucleotide = UCUUCUGGUUGGUAAAAGAUAUGUUCCGGAGAAUAUAGGAACAUGCCCGGAGAGACCUAACCUGUAUGUCCACUUUCAUGCUCUUGUUCCCCAAACCCCUGGGCAUUGUU; value = 0.956
Oligonucleotide = UGUUACACUGGAGCCUGCUGCAGGCCAGCUCUCUGCUCUUCACUGCUUCCCUUGACUGGGGAGACUGGAAGUCCUUACACUGGAGUUGCUGGGCCAACUGGUCACCCUCA; value = 0.355
Oligonucleotide = GCCGUGUCCUGAGGAGCACCUGGCCUUCCGCGUGGUCAGCGGGGCCGCCAACGUCAUUGGGCCCAAGAUCUGCCUCGAGGACAAGAGGCUGAUGAGCAGCGUCAAGGACA; value = 0.609
Oligonucleotide = AGCUGCUCUCAGGCACCCCCUUCUUCAUUGCUCUCUCCAGAAAGGGUUGCUAGCCUUAACUUCAGCUGGUGCAAAACAUCUGACUGUAGCCGAACUUCAGCCAUCAGAUC; value = 0.444
Oligonucleotide = AAAAAGUUUGUGACAUUGUAGUAGGGAGUGUGUACCCCUUACUCCCCAUCAAAAAAAAAAAUGGAUACAUGGUUAAAGGAUAGAAGGGCAAUAUUUUAUCAUAUGUUCUA; value = 0.603
